# Measurements gathered from unrelated publications.
# Numbered parts are unrelated; each lists some results of a single study.

# Sample 1
# Target: Interferon regulatory factor 5, full length, phosphomimetic (IRF5, Homo sapiens, UniProt Q13568-2, residues 1-514, S451D/S453D/S456D/S462D)
# Method: protein-binding microarray
# Form: double-stranded DNA, one strand shown
# Matrix: in vitro
# Concentration: 940 nM top
# Notes: 60-bp whole probe
# Together with: salmon DNA 0.4 mg/ml
# Reference: random background probes
# Reading: higher = stronger binding
# Shared flanks, not repeated: GCCTAGCAC … GTCTTGATTCGCTTGACGCTGCTG
Oligonucleotide,fitted relative affinity
TTTTTTTTTTTTTTTACTTCGTGCTAG,1.22 z-score
TTAGCACTGCTACTGCTTTAGTGCTAG,-0.283 z-score
TTATGTATCGACACTGGGTTAGTGCTA,1.9 z-score
TTAGGCCTCCTACTGCTTTAGTGCTAG,-0.323 z-score
GACGATTTCAGACTAGAGACGTGCTAG,-0.213 z-score
CTTTTATTAGTGACTCAGCACGTGCTA,0.375 z-score

# Sample 2
# Target: Sal-like protein 4, full length isoform A (SALL4, Homo sapiens, UniProt Q9UJQ4, residues 1-1053)
# UniProt Q9UJQ4, sequence (whole entry, looked up): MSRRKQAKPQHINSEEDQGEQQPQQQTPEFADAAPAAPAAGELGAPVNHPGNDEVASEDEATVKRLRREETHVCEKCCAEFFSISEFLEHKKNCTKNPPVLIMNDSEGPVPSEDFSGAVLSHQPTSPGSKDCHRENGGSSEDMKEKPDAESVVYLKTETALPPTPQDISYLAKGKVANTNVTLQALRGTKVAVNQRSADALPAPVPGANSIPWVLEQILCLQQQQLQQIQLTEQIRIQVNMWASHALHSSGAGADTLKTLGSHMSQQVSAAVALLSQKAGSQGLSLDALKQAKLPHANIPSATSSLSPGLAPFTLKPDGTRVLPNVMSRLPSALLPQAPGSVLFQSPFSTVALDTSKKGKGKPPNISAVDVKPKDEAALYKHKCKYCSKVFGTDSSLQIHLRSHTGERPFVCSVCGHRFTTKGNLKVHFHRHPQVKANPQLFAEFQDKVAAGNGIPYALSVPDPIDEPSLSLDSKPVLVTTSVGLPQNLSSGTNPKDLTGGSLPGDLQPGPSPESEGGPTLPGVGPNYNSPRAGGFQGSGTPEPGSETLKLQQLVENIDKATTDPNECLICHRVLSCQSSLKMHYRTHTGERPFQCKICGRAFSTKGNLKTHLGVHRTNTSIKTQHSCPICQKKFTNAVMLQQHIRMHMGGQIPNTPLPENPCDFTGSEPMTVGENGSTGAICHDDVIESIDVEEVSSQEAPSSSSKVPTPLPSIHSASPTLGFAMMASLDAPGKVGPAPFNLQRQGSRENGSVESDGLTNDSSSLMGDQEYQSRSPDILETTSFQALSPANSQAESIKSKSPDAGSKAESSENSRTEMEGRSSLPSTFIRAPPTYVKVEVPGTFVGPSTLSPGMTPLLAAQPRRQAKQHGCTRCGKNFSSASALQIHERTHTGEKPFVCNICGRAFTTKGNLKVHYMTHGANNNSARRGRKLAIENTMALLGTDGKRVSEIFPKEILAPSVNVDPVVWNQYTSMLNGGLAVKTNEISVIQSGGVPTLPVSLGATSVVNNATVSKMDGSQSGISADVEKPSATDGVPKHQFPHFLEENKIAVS
# Method: universal PBM
# Form: double-stranded DNA, one strand shown
# Matrix: in vitro
# Concentration: 600 nM
# Notes: 8-mer, flanks averaged, mean of replicates
# Reading: higher = stronger binding
Oligonucleotide,E-score
CAGGTCCC,-0.292
GGTCTGTA,-0.0715
CATCATTA,0.291

# Sample 3
# Target: RNA binding protein fox-1 homolog 2, RRM domain, GST-SBP tag (RBFOX2, Homo sapiens, UniProt O43251-10, residues 100-194)
# Method: RNA Bind-n-Seq
# Form: RNA
# Matrix: in vitro
# Concentration: 365 nM
# Notes: natural RNA segment, single round, ends assumed
# Reference: no-protein control
# Reading: higher = stronger binding
# Shared flanks, not repeated: GGGAGUUCUACAGUCCGACGAUC … UGGAAUUCUCGGGUGCCAA
# Residues (chain): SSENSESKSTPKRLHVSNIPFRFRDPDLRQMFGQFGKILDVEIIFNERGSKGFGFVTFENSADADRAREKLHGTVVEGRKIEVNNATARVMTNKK
Oligonucleotide,RBNS enrichment (R)
UCAUUGGCUUCUAGAAAUCAGAUGCCCAGAUGAUCCAAGACUAGUUUGUUAUCUCAUCUGGAACCUACACCAAGAGAUGCAGUCAGCAUCUUAAAGUAAAUGUUCAUGGA,0.287
AUCCUUUCGGACGACUACUUGGAGCCAUAAGUAACCUCAGCAAAAACGAGGCCUCUGCAAGCCACUUUUCCAUGCCAAGCAUCCACCCGGCCCACAGGCAUGUUUCUGCC,0.267
AUGAGAGGCGGGGACCGUGCAGCUGUCGGCUGAUGAGGAGGCGGCCGCCCCAGUGCUGAUGGAGAUGCCACUUUCGUGUGACUGCGAACAUUAAAGCACAAAAAAAUCCA,0.826
UGUUUUUUAGAAAUAUGCCCAGAGUAAGAAGCUGUGUUGGAGCCUAAGUCCUGCAAGCUGGGUCCUGGGGGCGACCGACCUGCUUUACUUGAUGGAUAAGUUACAGAGUU,0.443
UUAAAAUGCUAAAUAUUGCAAAUUUAAGCUUUGUCAGUAUAUGGAAAAGUUGAAGGGAAAAUACUGGAAUGCUUCUUCAAAGGUUAAAAAAUAACCGAGUCUUUUGGUAA,0.948
GAUAUAUGACUCCUUUGGGCUACAUUUCAUAUUGAUCAAUUUCUAGGUAUUUUUCACUGGCCCAAAGUAUUGCAUUCCCUUAACAGCAAGCACAAGUUCUCUAUAUCACU,0.753

# Mixed results
Substance,target,test,system,conditions,how to read,endpoint,result
"PhoQ, residues 284 288 289 292 302 303 SLANIV","PhoP, residues 12 14 15 18 19 DLLYY (Escherichia coli, UniProt P23836)","Sort-seq, measured: YFP reporter",E. coli,"PhoQ-PhoP variant library, together with: 10 µM Mg2+","reference: high Mg2+ state, higher = stronger signaling",fold induction,1.31

# For quick reference, copied from above (sample 2):
Oligonucleotide,E-score
CAGGTCCC,-0.292
GGTCTGTA,-0.0715
CATCATTA,0.291
